# Measurements collected from several papers.
# Compare with care: the assays were run in different laboratories. Values joined by “and” are separate records of one study, mostly repeats; a detail may differ. ± gives the spread as reported.
# SLC6A6 Y138A: Sodium- and chloride-dependent taurine transporter (SLC6A6, Homo sapiens, UniProt P31641, Y138A)
# Histone acetyltransferase type B catalytic subunit: Histone acetyltransferase type B catalytic subunit (Homo sapiens, UniProt O14929)
# HTR2A: 5-hydroxytryptamine receptor 2A (HTR2A, Homo sapiens, UniProt P28223)
Compound,target,test,test system,setting,scale,endpoint,value
Nc1ncnc2c1ncn2[C@@H]1O[C@H](COP(=O)(O)OP(=O)(O)OP(=O)(O)O)[C@@H](O)[C@H]1O,"P2X purinoceptor 7 (P2rx7, Rattus norvegicus, UniProt Q64663, I214A/Q143A/R125A)","ion current, agonist, two-electrode voltage clamp",Xenopus oocytes,1.23 µM,,normalized current,0.00184 and 0
CN(C)C(=O)CCSC(SCCC(=O)O)c1cccc(/C=C/c2ccc3ccc(Cl)cc3n2)c1 (stereo not shown),"UGT1A1 (Homo sapiens, UniProt P22309)","glucuronidation, inhibitor",cell lysate,"25 µM, with: genistein",,genistein glucuronide formation,decreased
O=C(c1ccc(C(=O)N2CCC(N3CCCC3)CC2)c(Nc2ccccc2)c1)N1CCC(N2CCCC2)CC1,"Lethal(3)malignant brain tumor-like protein 3, MBT domains (Homo sapiens, UniProt Q96JM7)",FRAP,human cells,0.5 µM,,diffusion coefficient,0.296 µm2/s
CC[C@@H]1[C@H](F)C(=O)N[C@@H]1COc1nccc2cc(C(N)=O)c(OC)cc12,"FER (Homo sapiens, UniProt P16591)","ATP-site probe binding, ActivX profiling",THP-1 cell lysate,"0.04 mM, Lys1 site",,inhibition,0.757%
NCCCCC(=O)O,SLC6A6 Y138A,"binding, microscale thermophoresis",,"122 nM, room temperature, with: 50 nM labelled protein",higher = more binding,normalised MST signal,-0.00791
COc1cc(Nc2ncc3c(n2)-c2ccc(Cl)cc2C(c2c(F)cccc2OC)=NC3)ccc1C(=O)O,MAP2K6,kinase activity,,1 µM,,remaining activity,109%
O=C(COP(=O)(O)O)[C@@H](O)[C@H](O)[C@H](O)COP(=O)(O)O,"Long-chain-fatty-acid--CoA ligase 5 (Homo sapiens, UniProt Q9ULC5)","thermal proteome profiling, refers to: ACSL5",HepG2 cell lysate,"concentration not given, 57 over 37 °C",reference: compound over control,thermal stability ratio,0.643 and 0.875 and 0.579
O=c1cc(-c2ccccc2)oc2ccc(O)cc12,"UGT1A9 (Homo sapiens, UniProt O60656)","glucuronidation, substrate",recombinant enzyme,,,Vmax,76 pmol/min/mg
Clc1cccc(OC[C@@H]2CN(CCN3CCc4ccccc43)CCO2)c1,"HTR7 (Homo sapiens, UniProt P34969)",radioligand binding,,"concentration not given, with: [3H]LSD",,inhibition,25.9%
C[C@H](O)c1cnc(NS(=O)(=O)c2ccc(Cl)c(Cl)c2)nc1,"17-beta-hydroxysteroid dehydrogenase 13 (Homo sapiens, UniProt Q7Z5P4)","substrate, NADH fluorescence",,,,Vmax,0.23 nM NADH/s/nM enzyme
CCCCC[S+]([O-])c1n[nH]c(N)n1 (stereo not shown),Histone acetyltransferase type B catalytic subunit,"binding, affinity selection mass spectrometry",,,reference: other proteins in batch,log fold enrichment,-0.0585
CCC1(O)CCCN(C(=O)c2ccc(-c3ccc(F)c(NC(=O)CCl)c3)cc2)C1 (stereo not shown),"DNA dC->dU-editing enzyme APOBEC-3A (Homo sapiens, UniProt P31941)","covalent modifier, intact protein mass spectrometry, refers to: adduct +26309 Da",,"500 µM, 3 h, 20-fold molar excess",,protein adduct,47%
Nc1ncnc2c1ncn2[C@@H]1O[C@H](CO[P@](=O)(O)O[P@](=O)(O)O[P@@](=O)(O)S)[C@@H](O)[C@H]1O,"GUK1 (Homo sapiens, UniProt Q16774, K17A)","binding, ITC",,,,ΔG,-5.26 kcal/mol
O=c1nc(SCc2ccc(C(F)(F)F)cc2)nc(SCc2csc3ccc(Cl)cc23)[nH]1,"TOP2A (Homo sapiens, UniProt P11388)",decatenation,,"0.49 µM, replicate 2",,decatenated DNA,0%
N[C@@H](CCC(=O)O)C(=O)O,"uncharacterized protein (Ixodes scapularis, UniProt A0A0N9E2I2)","ion current, agonist",Xenopus oocytes,,reference: 1 mM compound response,Emax,135 ± 7%
NC/C(=C\F)COc1cccc(Cn2c(=S)[nH]c(=O)c3[nH]cnc32)c1,"AOC3 (Homo sapiens, UniProt Q16853)","substrate turnover, SSAO/VAP-1 oxidation",,"concentration not given, unit not given",reference: DMSO control,enzyme activity,0.96 and 0.91 and 0.92 and 0.9 and 0.97
CC1(C)CC2(C)OC(=O)NC2(C)c2ccccc21 (stereo not shown),Histone acetyltransferase type B catalytic subunit,"binding, affinity selection mass spectrometry",,,reference: other proteins in batch,fold enrichment,0.565
Cc1ccc(OC[C@@H]2CN(CCN3CCc4ccccc43)CCO2)cn1,HTR2A,radioligand binding,,"concentration not given, with: [3H]ketanserin",,inhibition,27.8%
O=C(O)C1CCCNC1 (stereo not shown),SLC6A6 Y138A,"binding, microscale thermophoresis",,"488 nM, room temperature, with: 50 nM labelled protein",higher = more binding,normalised MST signal,-0.14
c1ccc(OC[C@@H]2CN(CCN3CCc4ccccc43)CCO2)cc1,HTR2A,radioligand binding,,"concentration not given, with: [3H]ketanserin",,inhibition,73.7%
CN1CCN(c2cc(-c3ccncc3)c(-c3ccc4ccccc4c3)nn2)CC1,"LPAR1 (Homo sapiens, UniProt Q92633)","agonist, FLIPR",,12.5 µM,,activation,-1%
Nc1ccn([C@H]2C[C@H](O)[C@@H](COP(=O)(O)OP(=O)(O)OP(=O)(O)O)O2)c(=O)n1,"Gag-Pol polyprotein, reverse transcriptase (gag-pol, Human immunodeficiency virus type 1 group M subtype B, UniProt P04585)","nucleotide incorporation, substrate",HIV-1,with: DNA template,,Vmax,0.47 product fraction
O=C(N/N=C/c1cc(Br)ccc1O)c1cc2ccccc2cc1O,"ESR2 (Homo sapiens, UniProt Q92731)","PGC-1α coactivator displacement, inhibitor, TR-FRET",,"up to 100 µM, with: estradiol",,activity,inactive
[O-][S+]1CCCCS1 (stereo not shown),"SOD1 (Homo sapiens, UniProt P00441, G94A)",LC-MS,human whole blood,"100 µM, 1 h, 37 °C",,SOD1 monomer fraction,69.7%
Nc1nc2c(ncn2[C@@H]2O[C@H](COP(=O)(O)O)[C@@H](O)[C@H]2O)c(=O)[nH]1,"GUK1 (Homo sapiens, UniProt Q16774)","enzyme activity, NADH-coupled",,"15.62 µM, with: NaCl 10 mM",,reaction velocity,0.0292 µM/s and 0.0148 µM/s and 0.0179 µM/s
Nc1ccc(C(=O)O)cc1,"BEST1, with wild-type BEST1 (Homo sapiens, UniProt O76090, R218H)","ion current, whole-cell patch clamp",HEK293 co-expressing mutant and wild-type,"concentration not given, voltage -60 mV",,current density,-13.6 pA/pF and -7.69 pA/pF and -15.1 pA/pF and -9.08 pA/pF and -2.44 pA/pF and -6 pA/pF and -20.9 pA/pF and -2.62 pA/pF
NC(=O)CCC(=O)O,"Uncharacterized protein (Pelagibacter ubique, UniProt Q4FKX4)",differential scanning fluorimetry,Candidatus Pelagibacter ubique,in-house screen,,thermal shift,3.52 °C
N#Cc1ccc2c(-c3ccncc3)c(-c3ccc(F)cc3)nn2c1,"Protein kinase C-like 1 (Candida albicans, UniProt P43057)","kinase binding, competitor, MIB/MS competition, refers to: PKC1",Candida albicans cell lysate,10 µM,reference: DMSO,log2 fold change,0.485
NC(=O)C1=CN([C@@H]2O[C@H](COP(=O)(O)OP(=O)(O)OC[C@H]3O[C@@H](n4cnc5c(N)ncnc54)[C@H](O)[C@@H]3O)[C@@H](O)[C@H]2O)C=CC1,"FSP1, ancestral","oxidase activity, substrate",,with: atmospheric O2,,kcat,0.92 ± 0.08 s⁻¹
Cc1cccc(N2CC(C(=O)O)CC2=O)c1 (stereo not shown),Histone acetyltransferase type B catalytic subunit,"binding, affinity selection mass spectrometry",,,reference: other proteins in batch,log fold enrichment,0.0418
CCCCCC(O)C(CC=O)SC[C@H](NC(C)=O)C(=O)O (stereo partly shown),"N-acyl-aromatic-L-amino acid amidohydrolase (carboxylate-forming) (Acy3, Mus musculus, UniProt Q91XE4)","substrate, fluorescamine",,with: Co2+ 0.1 mM,,kcat,1.67 s⁻¹
COc1ccccc1N1CCN(CCCCN2CCc3ccccc3C2=O)CC1,"HTR2C (Homo sapiens, UniProt P28335)",radioligand binding,,"concentration not given, with: [3H]mesulergine",,inhibition,77.2%
Nc1ncnc2c1ncn2[C@@H]1O[C@H](COP(=O)(O)CP(=O)(O)OP(=O)(O)O)[C@@H](O)[C@H]1O,"P2X purinoceptor 1 (P2RX1, Homo sapiens, UniProt P51575, R292A)",calcium influx,,3.16 µM,reference: ionomycin response,calcium influx,9.69% and 4.15% and 2.64% and 1.65%
Cc1cc(-c2ccnc3[nH]cc(F)c23)cc(F)c1[C@@]1(O)[C@H](C)CN(C2CCS(=O)(=O)CC2)C[C@@H]1C,"Aurora kinase B (AURKB, Homo sapiens, UniProt Q96GD4)","ATP/ADP probe binding, KiNativ",HEK293T lysate,"0.1 µM, Lys1 peptide",,probe labelling inhibition,-14.5%
